Published values gathered from unrelated publications.
Parts stem from different laboratories: compare values within a part only. Changes are numbered by the printed parent chain.

Block 1 — target: CCNE1, cyclin fold, Cln2 fusion (human); method: yeast growth competition, sequencing; medium: yeast; notes: weak parent motif; reference: not given; direction: higher = stronger binding; quantity: normalised enrichment score
Starting sequence: REV3L docking peptide (human); PPVIIKYIIINRF
I5A: 0.145
V3A: 0.658
K6A: 0.177
I10A: 1.1
N11A: 0.465
R12A: 0.694

Block 2 — method: RNAcompete; molecule type: RNA; medium: in vitro; concentration: 20 nM; notes: 7-mer, probes averaged, single round; reference: mean of 7-mers; direction: higher = stronger binding; quantity: 7-mer Z-score
Target: PABPC1L2, full length, GST fusion (mouse, UniProt A0ABA7IW68)
Residues (chain): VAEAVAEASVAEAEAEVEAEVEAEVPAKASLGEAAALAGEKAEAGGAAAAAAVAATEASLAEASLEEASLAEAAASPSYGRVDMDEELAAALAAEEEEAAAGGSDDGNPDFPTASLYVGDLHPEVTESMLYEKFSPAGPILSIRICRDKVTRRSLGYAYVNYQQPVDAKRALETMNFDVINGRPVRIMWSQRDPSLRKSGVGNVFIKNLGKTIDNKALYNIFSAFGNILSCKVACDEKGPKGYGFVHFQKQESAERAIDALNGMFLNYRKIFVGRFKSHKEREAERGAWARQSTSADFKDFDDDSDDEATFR
ACAUAAA: 3.53
AUAAAUG: 1.4
UAACAGC: -0.159
CCUCCCA: -0.349
CAAGCUC: -0.19
ACCCAUU: -0.122
GACUUCG: -0.219
UCGCCAU: -0.396
ACCCACU: -0.282
AUUUGCA: -0.26
CUCGCUG: -0.418
AGCGCUC: -0.306
CCGUCUU: -0.378
CAACCCU: -0.141
CACGACU: -0.0645
AAAUUCU: 0.423
GUCGAGA: -0.0917
AGAGUCA: -0.22
UCUGAAA: 0.36
CUCGUGA: -0.318
GUUUCCU: -0.407
AAAACAU: 8.41
GUAUUGA: -0.2
GAGUAAU: -0.186
UUUGCAG: -0.347

Block 3 — method: RNA Bind-n-Seq; molecule type: RNA; medium: in vitro; concentration: 365 nM; reference: no-protein control; direction: higher = stronger binding; quantity: RBNS enrichment (R)
Target: RNA binding protein fox-1 homolog 2, RRM domain, GST-SBP tag (RBFOX2, Homo sapiens, UniProt O43251-10, residues 100-194)
Notes: natural RNA segment, single round, ends assumed
Shared flanks, not repeated: GGGAGUUCUACAGUCCGACGAUC … UGGAAUUCUCGGGUGCCAA
Residues (chain): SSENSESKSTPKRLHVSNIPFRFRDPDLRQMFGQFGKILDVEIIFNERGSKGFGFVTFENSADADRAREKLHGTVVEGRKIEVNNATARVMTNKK
GGAGGAACAAAUUACAAGUGUACCCAAUAACUGAAAAUGUUUUAACUCACUCUCAUUUGUAAGCAGUCCACAUAGUAGACAAUGGGUUUUCCAAGCUGGGCAAGGUACAU: 0.442
GCCACACUGUGCGUCCUGGAGACAGAGCAGAGAUUGAGUAGGGAAACUGGCGUGAAAGGUGAGCAGGCGUCUGCGGAGCGGAUUCCUGUGGUGGACCGUGGAGUGCAGAG: 0.623
AGGAAUUGCUGGGCAGGUCUCCGACUAAAGGUCUUAUGAUGAAAAGGAAGAAACAAGCCCCCAACACAAGGCUCUGAUACUACUGGUAAAUGUAGGAGAGAAUUAAGAAU: 0.73
GCUCUUAGUUGUUCCCUUUCCCUGGGGCUUUUCCAUUUAACACAUGGAGCCCUUCCCCCAGAAGGCUACUUCCUUGUUUUAGAGGAAGGUACUGCCCAUUGGGAGAUGGG: 0.159
GCUGGAGCAAGAGUCCACCUUUAGCUGUGCCUGCCUUUACUUCUGUGCCUCACAAGUGCCUUUUGAAAAGCCUUAAAUUCUGCAUUCCCAUAAAAUAAAGUUGAUGCCAC: 0.532
GCUGCAUUUGUUGUGUUUUUUAGGUUGCAAUUGGUGAAGUUCACACUUUCAUUGUAAUUUUAGCGUGUGGGGUUUUGUCCCUUUUUUGUUGUUGUUAGCUGUGUACAGAA: 1.37
ACAGGAUUCUUAUCAUUUGUAAAUCUAAAACCGUCUGUGAACGCAUUUCUAUGCUUCUUCCUUUAUGAAAGCAUAACUUAAAACAUGAAAAUAAUGUUGGUUAUAGAAAU: 0.478
ACUUCCUUUCCCAUGAACACUUGCAGUUGCUAAGGGACUUUAUUUUGUAACAUAUUAAUUAUAAAUAUUGUAUUUAUCUUUGAAAUUUUGUACAUUGCUUUCCCUGCCUU: 1.14
UGCUUGUCCCCAAAUCACCUAACCCUCAUCCAGGGCUAUUUUGGUGGGCAGGGACUGCCUCCUCCCGGAAUUCCUAAGAUCCGCCCAGCUGCCACCAUUUUCAUUGCUUU: 0.918
GUCAUUGCCAUCACCAUCGCCAGCAUUGAGGAAGAGCCUCUGAAGUGUCAGGACUUUGCAGUGUAGCUCAUGCAAAGAGAGUGUUCUAUAAAAAUCUUGACAGCUGAACU: 0.577
UGUCUUCCUGGAAACCUAAAGGGAAACAUGAUCUUGUCCUGAAAAUGAUAUUUUAGAGUCUGAGUGACCCCUUUGACUAUCAGUUCUGAAGAGCAAUUCUCACUGGUAAC: 0.229
UUCUGAUCACUCUAGCCACCGGAGGAUGAAAGGGAUCUUUUGCAUAGCAGAGGAUUUUAUACACAAAUAUAUUUUGUUUGUAAUGAGCCAUUCUCAAUAAAUAUUCUCAC: 0.329

Block 4 — method: RNA Bind-n-Seq; molecule type: RNA; medium: in vitro; concentration: 200 nM; notes: whole 134-nt RNA, ends assumed; with: 150 mM KCl; reference: input library; direction: higher = stronger binding; quantity: log2 enrichment
Target: Ras GTPase-activating protein-binding protein 1, full length (G3BP1, Homo sapiens, UniProt Q13283)
Chain of UniProt Q13283 (whole entry, looked up): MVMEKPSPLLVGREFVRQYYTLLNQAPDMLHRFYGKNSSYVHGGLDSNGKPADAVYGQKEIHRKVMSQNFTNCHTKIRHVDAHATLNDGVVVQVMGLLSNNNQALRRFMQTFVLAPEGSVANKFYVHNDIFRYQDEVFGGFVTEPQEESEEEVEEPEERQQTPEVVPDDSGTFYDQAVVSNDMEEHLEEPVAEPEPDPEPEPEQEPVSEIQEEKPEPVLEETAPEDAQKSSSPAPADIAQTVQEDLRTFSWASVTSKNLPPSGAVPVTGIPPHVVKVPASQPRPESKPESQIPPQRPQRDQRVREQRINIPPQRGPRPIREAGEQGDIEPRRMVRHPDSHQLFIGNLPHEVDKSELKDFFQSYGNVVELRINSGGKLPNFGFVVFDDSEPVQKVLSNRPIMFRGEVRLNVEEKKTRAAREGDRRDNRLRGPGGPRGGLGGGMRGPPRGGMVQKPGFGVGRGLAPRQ
Shared flanks, not repeated: GGGAGUUCUACAGUCCGACGAUC … UGGAAUUCUCGGGUGUCAAGG
ACCAUGCAGGUGGGCAUCUUUGGGAAGUGGGGCAAGGGGGGGAUAGGGAGGGGGGUAACACUUUGGGAACAGGUGGAAACAGGUCGUUUC: 0.843
UCAAGUCCUGUGCUACACAUCGUAUGUACCGAAUCGGUGGAAAGGAAAAAAAGGAAAGUAUUAUGUUACGCCGUUCGGAUCUGCACUUCC: -0.804
CCUGUGCUACACAUCGUAUGUACCGAAUCGGGCCCCCCGGGCCCCCCGGGGCCCCCCGGGAAAGUAUUAUGUUACGCCGUUCGGAUCUGC: -0.786
UGGCGCCGUUCGACACCAGGCGGAUCCGCUCUGCAGCACGAACCCAUCUCCAGCCGCAGCCGCAGCCGCCGCCCGGGCCGAGGAGCAGCC: -0.183
CACAGACAACACGCACCCACACAGACACAGAGGGAAGGGGUUGGGAUGGGGACAGGGUGCACAGCAGGGCGGGGUAGGGCCCCAGCCCCU: 1.95
UGUGCUACACAUCGUAUGUACCGAAUCGGGGAAAAAGGGGAAAAAAAGGGGAAAAAAAGGGGAAAGUAUUAUGUUACGCCGUUCGGAUCU: -0.265
UCCUCAAGUCCUGUGCUACACAUCGUAUGUACCGAAUCGGGAGGGAGGGAGGAAAGUAUUAUGUUACGCCGUUCGGAUCUGCACUUCCAG: 1.91
UAACUUUAGAGGAGGAUCUGAUUGAUAUGGCAGUGGACGUGGAUUUGGGGAUGGCUAUAAUGGGUAUGGAGGAGGACCUGGAGGUGGCAA: 0.602
UUCUUACAUGUGUAAUCUUCUUCUCCUAGGGCGGCAGAACUCAUGACAAGAACAAGCUCUGUGGUGACACUGGAAGUAGCAAAGCAGGGU: 0.381
GGUAGCAAGAGCUCCAGAGAGAAGUCGAGGAAGAGAGAGACGGGGUCAGAGAGAGCGCGCGGGCGUGCGAGCAGCGAAAGCGACAGGGGC: 0.745
CAAGUCCUGUGCUACACAUCGUAUGUACCGAAUCGGGGAAAAGGAAAAGGAAAAGGAAAGUAUUAUGUUACGCCGUUCGGAUCUGCACUU: -0.759
CAAGUCCUGUGCUACACAUCGUAUGUACCGAAUCGGGGAAAGGGAAAGGAAAGGGGAAAGUAUUAUGUUACGCCGUUCGGAUCUGCACUU: 0.371
UCCUGUGCUACACAUCGUAUGUACCGAAUCGGGCCCCCCGGGGCCCCCCGGCCCCCCGGAAAGUAUUAUGUUACGCCGUUCGGAUCUGCA: -0.101
UGGCCCUGGUGGCAUGCGGGGAGGAAGAGGUGGCCUCAUGGAUCCUGGUGGUCCCGGUGGAAUGUUCAGAGGUGGCCGUGGUGGAGACAG: -0.0265

Block 5 — method: DHFR PCA, deep sequencing; medium: yeast; with: (+)-ABA 17 µM; reference: wild-type fitted maximum; direction: higher = stronger binding; quantity: relative binding score
Target: ABI1, truncated, D143A, DHFR fusion (Arabidopsis thaliana)
Notes: methotrexate growth selection, single substitutions
Starting sequence: PYL1, truncated, DHFR fusion (Arabidopsis thaliana); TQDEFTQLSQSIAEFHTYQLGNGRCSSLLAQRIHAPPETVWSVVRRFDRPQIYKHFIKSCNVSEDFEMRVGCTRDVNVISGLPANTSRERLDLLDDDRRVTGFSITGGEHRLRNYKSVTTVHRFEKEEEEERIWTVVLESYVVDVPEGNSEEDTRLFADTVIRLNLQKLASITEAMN; partner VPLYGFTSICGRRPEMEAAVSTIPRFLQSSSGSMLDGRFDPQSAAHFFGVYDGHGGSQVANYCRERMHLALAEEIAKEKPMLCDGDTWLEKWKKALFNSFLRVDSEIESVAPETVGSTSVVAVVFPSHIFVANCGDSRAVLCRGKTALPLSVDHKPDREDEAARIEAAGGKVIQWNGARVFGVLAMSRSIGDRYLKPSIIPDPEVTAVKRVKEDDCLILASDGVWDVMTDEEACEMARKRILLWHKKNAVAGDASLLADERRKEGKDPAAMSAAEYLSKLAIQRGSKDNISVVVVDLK
D159V: -4.66%
F157V: 38.7%
P50R: -14.4%
T86A: 59.3%
S27E: 21.6%
V118E: 12.9%
G107D: 64%
N22E: 88.6%
R88P: -19.8%
A175I: 74.8%
H110D: 15.7%
A13P: -3.23%
D48G: 13%
Q51F: 48.4%
C72G: 55.1%
G71A: 8.55%
D75P: -42.8%
M68F: 74.5%

For quick reference, copied from above (block 3):
UGCUUGUCCCCAAAUCACCUAACCCUCAUCCAGGGCUAUUUUGGUGGGCAGGGACUGCCUCCUCCCGGAAUUCCUAAGAUCCGCCCAGCUGCCACCAUUUUCAUUGCUUU: 0.918
UUCUGAUCACUCUAGCCACCGGAGGAUGAAAGGGAUCUUUUGCAUAGCAGAGGAUUUUAUACACAAAUAUAUUUUGUUUGUAAUGAGCCAUUCUCAAUAAAUAUUCUCAC: 0.329
GCCACACUGUGCGUCCUGGAGACAGAGCAGAGAUUGAGUAGGGAAACUGGCGUGAAAGGUGAGCAGGCGUCUGCGGAGCGGAUUCCUGUGGUGGACCGUGGAGUGCAGAG: 0.623
GCUCUUAGUUGUUCCCUUUCCCUGGGGCUUUUCCAUUUAACACAUGGAGCCCUUCCCCCAGAAGGCUACUUCCUUGUUUUAGAGGAAGGUACUGCCCAUUGGGAGAUGGG: 0.159
ACAGGAUUCUUAUCAUUUGUAAAUCUAAAACCGUCUGUGAACGCAUUUCUAUGCUUCUUCCUUUAUGAAAGCAUAACUUAAAACAUGAAAAUAAUGUUGGUUAUAGAAAU: 0.478
GGAGGAACAAAUUACAAGUGUACCCAAUAACUGAAAAUGUUUUAACUCACUCUCAUUUGUAAGCAGUCCACAUAGUAGACAAUGGGUUUUCCAAGCUGGGCAAGGUACAU: 0.442
GCUGGAGCAAGAGUCCACCUUUAGCUGUGCCUGCCUUUACUUCUGUGCCUCACAAGUGCCUUUUGAAAAGCCUUAAAUUCUGCAUUCCCAUAAAAUAAAGUUGAUGCCAC: 0.532
AGGAAUUGCUGGGCAGGUCUCCGACUAAAGGUCUUAUGAUGAAAAGGAAGAAACAAGCCCCCAACACAAGGCUCUGAUACUACUGGUAAAUGUAGGAGAGAAUUAAGAAU: 0.73
GUCAUUGCCAUCACCAUCGCCAGCAUUGAGGAAGAGCCUCUGAAGUGUCAGGACUUUGCAGUGUAGCUCAUGCAAAGAGAGUGUUCUAUAAAAAUCUUGACAGCUGAACU: 0.577
UGUCUUCCUGGAAACCUAAAGGGAAACAUGAUCUUGUCCUGAAAAUGAUAUUUUAGAGUCUGAGUGACCCCUUUGACUAUCAGUUCUGAAGAGCAAUUCUCACUGGUAAC: 0.229
ACUUCCUUUCCCAUGAACACUUGCAGUUGCUAAGGGACUUUAUUUUGUAACAUAUUAAUUAUAAAUAUUGUAUUUAUCUUUGAAAUUUUGUACAUUGCUUUCCCUGCCUU: 1.14
